Measurements of several laboratories.
Protocols differ between the studies behind these lines. Several values in a cell are separate wells, animals, samples, runs or records.
rep main protease: Replicase polyprotein 1ab, main protease (rep, Severe acute respiratory syndrome coronavirus 2, UniProt P0DTD1)
Matrix protein 2 S31N: Matrix protein 2 (Influenza A virus, UniProt P0DOF5, S31N)
rep papain-like protease: Replicase polyprotein 1ab, papain-like protease (rep, Severe acute respiratory syndrome coronavirus 2, UniProt P0DTD1)

| SMILES | target | assay | system | setting | scale | measurement | value |
| --- | --- | --- | --- | --- | --- | --- | --- |
| CCOc1ccc(CN2CC[C@H]2C(=O)NC)cc1-c1cccc(C(=O)NC[C@@H]2COC(C)(C)O2)c1 | rep main protease | immobilized protein counterscreen | – | – | reference: 3CL protease alone | enrichment index | 9710 |
| O=C(NC1CCN(c2ncnc3[nH]cnc23)CC1)c1cccc(NS(=O)(=O)c2ccc(C(F)(F)F)cc2)c1 | Replicase polyprotein 1ab, nsp14 (rep, Severe acute respiratory syndrome coronavirus 2, UniProt P0DTD1) | – | – | 3.125 µM | – | inhibition | 89.4% |
| CC(C)CC(C(=O)N1CC2(CC1C#N)C(=O)Nc1ccccc12)N(C)C(=O)c1cc2c(F)cc(F)c(F)c2[nH]1 (centres unmarked) | Replicase polyprotein 1ab, main protease K90R/A193V (rep, Severe acute respiratory syndrome coronavirus 2, UniProt P0DTD1, A3456V/K3353R) | – | – | 0.1 µM | – | remaining activity | -0.252% and 0.057% and -0.215% |
| Nc1ncc(CNC23CC4CC(CC(C4)C2)C3)s1 | Matrix protein 2 S31N | channel activity, inhibitor | – | concentration not given, S31N mutant | – | inhibition | inactive |
| C[C@H](c1cccc2ccccc12)N1CCC(C(=O)NCc2cc(F)cc(NC(=O)CN(C)C)c2)CC1 | rep papain-like protease | nsp1-nsp2 cleavage, western blot | HEK293T cells | 10 µM | – | inhibition | inhibited |
| Cn1cc(CNC23CC4CC(CC(C4)C2)C3)nn1 | Matrix protein 2 S31N | proton channel activity, inhibitor | Influenzavirus A, S31N mutant | 100 µM | – | inhibition | 28% |
| C[C@H](c1cccc2ccccc12)N1CCC(C(=O)NCc2cccc(NC(=O)N3CCN(C)CC3)c2)CC1 | rep papain-like protease | nsp1-nsp2 cleavage, western blot | HEK293T cells | 10 µM | – | inhibition | inhibited |
| CC(C)(C)[C@H](NC(=O)NC1(CS(=O)(=O)C(C)(C)C)CCCCC1)C(=O)N1C[C@H]2[C@@H]([C@H]1C(=O)N[C@H](C#N)C[C@@H]1CCNC1=O)C2(C)C | rep main protease | thermal stabilisation, DSF | – | 10 µM protein, 20-fold inhibitor | reference: no inhibitor | ΔTm | 16.7 °C |
| CC(C)C[C@@H]1NC(=O)[C@H](C(C)C)NC(=O)[C@H](C(C)C)NC(=O)[C@@H]2CSC(=N2)c2cc(ccn2)C[C@@H](C(N)=O)NC(=O)[C@H](CCC(N)=O)NC1=O | rep main protease | enzyme activity, inhibitor | – | 100 µM | – | inhibition | no inhibition |
| CNC(=O)CC[C@H](Cc1ccccc1)NC(=O)[C@@H](Cc1ccc(Cl)cc1Cl)NC(=O)[C@H](N)Cc1ccccc1[N+](=O)[O-] | rep main protease | immobilized protein counterscreen | – | – | reference: 3CL protease alone | enrichment index | 17100 |
| O=c1cc(-c2ccc(O)cc2)oc2c([C@@H]3OC[C@H](O)[C@H](O)[C@H]3O)c(O)c([C@@H]3O[C@H](CO)[C@@H](O)[C@H](O)[C@H]3O)c(O)c12 | Replicase polyprotein 1ab, papain-like protease Y268A (rep, Severe acute respiratory syndrome coronavirus 2, UniProt P0DTD1, Y1831A) | enzyme activity, inhibitor | – | concentration not given, PLpro Y268A mutant | – | inhibition | 33.7% |
